# Assay results from different studies.
# Protocols differ between the studies behind these lines. ± marks the error that the study gave.
# F fusion protein: Fusion glycoprotein F0, fusion protein (F, Parainfluenza virus 5, UniProt P04849)
# UniProt P04849, sequence (whole entry, looked up): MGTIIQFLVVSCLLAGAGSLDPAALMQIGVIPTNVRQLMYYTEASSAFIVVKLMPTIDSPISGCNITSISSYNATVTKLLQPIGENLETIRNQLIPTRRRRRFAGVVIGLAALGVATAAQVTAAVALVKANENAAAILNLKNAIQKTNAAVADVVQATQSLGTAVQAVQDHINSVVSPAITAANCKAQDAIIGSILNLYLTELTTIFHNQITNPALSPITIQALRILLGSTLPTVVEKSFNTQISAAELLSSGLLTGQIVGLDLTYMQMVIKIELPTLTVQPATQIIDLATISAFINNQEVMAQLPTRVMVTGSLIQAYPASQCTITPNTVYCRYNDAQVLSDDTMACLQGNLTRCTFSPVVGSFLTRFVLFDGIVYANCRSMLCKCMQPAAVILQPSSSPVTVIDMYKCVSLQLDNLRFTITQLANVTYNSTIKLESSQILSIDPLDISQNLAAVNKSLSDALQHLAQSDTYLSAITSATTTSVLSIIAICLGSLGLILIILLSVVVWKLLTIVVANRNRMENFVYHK
# gag-pol integrase: Gag-Pol polyprotein, integrase (gag-pol, Human immunodeficiency virus type 1 group M subtype B, UniProt P04585)
# UniProt P16390, sequence (whole entry, looked up): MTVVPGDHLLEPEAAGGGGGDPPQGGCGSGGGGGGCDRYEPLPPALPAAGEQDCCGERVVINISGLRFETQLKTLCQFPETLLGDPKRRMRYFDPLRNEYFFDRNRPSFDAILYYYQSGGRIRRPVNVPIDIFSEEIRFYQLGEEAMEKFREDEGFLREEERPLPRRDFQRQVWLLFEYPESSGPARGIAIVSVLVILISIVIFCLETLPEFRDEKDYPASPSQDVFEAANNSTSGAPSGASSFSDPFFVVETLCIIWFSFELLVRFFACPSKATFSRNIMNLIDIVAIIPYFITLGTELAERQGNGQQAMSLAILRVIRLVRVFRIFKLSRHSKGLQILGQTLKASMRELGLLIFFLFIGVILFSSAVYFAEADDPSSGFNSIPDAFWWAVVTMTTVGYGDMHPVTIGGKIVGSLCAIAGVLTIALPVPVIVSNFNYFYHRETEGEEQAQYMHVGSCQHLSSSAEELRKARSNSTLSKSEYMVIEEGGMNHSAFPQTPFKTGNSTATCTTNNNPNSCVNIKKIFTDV
# UniProt P22303, sequence (whole entry, looked up): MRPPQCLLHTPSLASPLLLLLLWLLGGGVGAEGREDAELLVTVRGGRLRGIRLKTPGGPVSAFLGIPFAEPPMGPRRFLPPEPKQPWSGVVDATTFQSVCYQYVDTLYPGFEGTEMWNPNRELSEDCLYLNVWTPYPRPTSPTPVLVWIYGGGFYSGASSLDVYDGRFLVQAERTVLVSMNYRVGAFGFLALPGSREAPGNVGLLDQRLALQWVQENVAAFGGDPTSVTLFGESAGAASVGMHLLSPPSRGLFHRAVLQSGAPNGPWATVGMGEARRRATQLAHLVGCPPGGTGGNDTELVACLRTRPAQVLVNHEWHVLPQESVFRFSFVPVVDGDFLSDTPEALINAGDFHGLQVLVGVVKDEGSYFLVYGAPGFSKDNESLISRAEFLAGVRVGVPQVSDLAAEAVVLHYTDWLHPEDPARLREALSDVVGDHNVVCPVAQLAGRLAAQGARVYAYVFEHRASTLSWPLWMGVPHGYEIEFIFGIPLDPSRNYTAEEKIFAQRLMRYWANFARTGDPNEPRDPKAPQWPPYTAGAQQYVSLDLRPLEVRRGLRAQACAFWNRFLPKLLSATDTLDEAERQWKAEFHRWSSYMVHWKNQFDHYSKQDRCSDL
# UniProt P32300, sequence (whole entry, looked up): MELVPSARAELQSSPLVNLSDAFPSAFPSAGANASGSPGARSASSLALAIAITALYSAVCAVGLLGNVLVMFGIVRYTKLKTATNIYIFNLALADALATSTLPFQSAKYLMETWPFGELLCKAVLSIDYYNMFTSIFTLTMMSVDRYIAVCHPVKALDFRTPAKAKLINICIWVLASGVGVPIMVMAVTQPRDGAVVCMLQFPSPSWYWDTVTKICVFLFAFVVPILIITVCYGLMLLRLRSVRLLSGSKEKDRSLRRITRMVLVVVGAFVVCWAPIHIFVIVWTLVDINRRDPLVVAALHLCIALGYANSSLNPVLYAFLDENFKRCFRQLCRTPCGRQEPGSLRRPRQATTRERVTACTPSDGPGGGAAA
SMILES,target,assay,system,setting,IC50 [µM]
CC[C@H](C)[C@@H]1NC(=O)[C@@H](NC(=O)[C@H](CO)NC(=O)[C@@H](N)CCCNC(=N)N)CSSC[C@@H](C(N)=O)NC(=O)[C@H]([C@@H](C)O)NC(=O)CNC(=O)[C@@H]2CSSC[C@@H]3NC(=O)[C@H](CCC(N)=O)NC(=O)[C@H](Cc4ccccc4)NC(=O)[C@H](C)NC(=O)[C@H]([C@@H](C)O)NC(=O)[C@H](CSSC[C@H](NC(=O)[C@H](Cc4ccccc4)NC(=O)[C@H](CO)NC(=O)[C@H](CC(C)C)NC(=O)[C@H](CCCNC(=N)N)NC(=O)[C@H](Cc4ccc(O)cc4)NC(=O)[C@H](CCCCN)NC(=O)[C@H](CCSC)NC(=O)[C@H](CO)NC(=O)[C@H](Cc4c[nH]cn4)NC(=O)[C@H](CCCCN)NC3=O)C(=O)N[C@@H](CCCNC(=N)N)C(=O)N[C@@H](CCCCN)C(=O)N[C@@H]([C@@H](C)O)C(=O)N2)NC(=O)[C@H](CCCNC(=N)N)NC(=O)[C@H](CO)NC(=O)[C@H](CCCCN)NC(=O)[C@@H]2CCCN2C(=O)[C@H]([C@@H](C)CC)NC(=O)[C@H]([C@@H](C)O)NC(=O)[C@H](CC(=O)O)NC1=O,"Potassium voltage-gated channel subfamily A member 3 (Kcna3, Mus musculus, UniProt P16390)","ion current, inhibitor, patch clamp",,,3.5e-05
CC[C@H](C)[C@@H]1NC(=O)[C@@H]2CCCN2C(=O)[C@H](C)NC(=O)[C@H](CC(C)C)NC(=O)[C@@H]2CCCN2C(=O)[C@H](C)NC(=O)[C@@H]2CSSC[C@H](NC(=O)[C@H](C)NC(=O)[C@H](C)NC(=O)[C@H](Cc3ccc(O)cc3)NC(=O)[C@@H]3CCCN3C(=O)CNC(=O)[C@H](Cc3c[nH]c4ccccc34)NC1=O)C(=O)N[C@@H](CC(C)C)C(=O)N[C@@H](CO)C(=O)N[C@@H](C)C(=O)N[C@H]1CSSC[C@H](NC(=O)[C@H](C(C)C)NC(=O)[C@@H]3CCCN3C(=O)CNC(=O)CNC(=O)CNC(=O)[C@H](C)NC(=O)[C@H](C)NC(=O)[C@H](CC(C)C)NC1=O)C(=O)N[C@@H](CC(C)C)C(=O)N[C@@H](C)C(=O)N[C@@H](C(C)C)C(=O)N2,"Acetylcholinesterase (ACHE, Homo sapiens, UniProt P22303)","enzyme activity, inhibitor",,,> 45.8
CC[C@H](C)[C@H](NC(=O)[C@H](C)NC(=O)[C@H](CO)NC(=O)[C@H](CC(C)C)NC(=O)[C@H](Cc1ccc(O)cc1)NC(=O)[C@@H](NC(=O)[C@H](CC(=O)O)NC(=O)[C@H](CO)NC(=O)[C@H](CCC(N)=O)NC(=O)[C@H](C)NC(=O)[C@H](CC(C)C)NC(=O)[C@H](Cc1c[nH]cn1)NC(=O)[C@H](CCC(N)=O)NC(=O)[C@H](CC(C)C)NC(=O)[C@H](C)NC(=O)[C@H](CC(=O)O)NC(=O)[C@H](CO)NC(=O)[C@H](CC(C)C)NC(=O)[C@H](CO)NC(=O)[C@H](CCCCN)NC(=O)[C@H](CC(N)=O)NC(=O)[C@@H](NC(=O)[C@H](C)NC(=O)[C@H](C)NC(=O)[C@H](CC(C)C)NC(=O)[C@H](CC(N)=O)NC(=O)[C@H](CCC(N)=O)NC(=O)[C@H](CO)NC(=O)[C@H](Cc1c[nH]c2ccccc12)NC(=O)[C@H](CC(=O)O)NC(=O)[C@H](CC(C)C)NC(=O)[C@@H]1CCCN1C(=O)[C@H](CC(=O)O)NC(=O)[C@@H](NC(=O)[C@H](CO)NC(=O)[C@H](CC(C)C)NC(=O)[C@@H](NC(=O)[C@H](CCC(N)=O)NC(=O)[C@H](CO)NC(=O)[C@H](CO)NC(=O)[C@H](CCC(=O)O)NC(=O)[C@H](CC(C)C)NC(=O)[C@@H](N)CCCCN)[C@@H](C)CC)[C@@H](C)CC)C(C)C)[C@@H](C)O)C(=O)O,F fusion protein,"cell-cell fusion, inhibitor, luciferase reporter",Vero plus BSR-T7 cells,"6 h, 37 °C, added: SV5 F and HN",0.146 ± 0.013
CC(C)C[C@H](NC(=O)[C@H](CCCCN)NC(=O)[C@H](CC(C)C)NC(=O)[C@]1(C)CCCC=CCCC[C@](C)(N)C(=O)N[C@@H](C)C(=O)N[C@@H](Cc2ccc(O)cc2)C(=O)N[C@@H](Cc2ccccc2)C(=O)N1)C(=O)N[C@@H](C)C(=O)NCC(=O)N[C@@H](CCCNC(=N)N)C(=O)N[C@@H](Cc1c[nH]c2ccccc12)C(N)=O,gag-pol integrase,"integrase strand transfer, inhibitor",,,19 ± 10
C=CCCC[C@H](NC(=O)[C@H](CC(C)C)NC(=O)[C@H](CCC(N)=O)NC(=O)[C@H](CCC(N)=O)NC(=O)[C@H](CCCC=C)NC(=O)[C@@H](NC(=O)[C@H](CCCNC(=N)N)NC(=O)[C@@H](NC(=O)[C@@H](NC(=O)[C@H](C)NC(=O)[C@H](CCC(=O)O)NC(C)=O)[C@@H](C)CC)[C@@H](C)CC)[C@@H](C)CC)C(=O)N[C@@H](Cc1ccccc1)C(=O)N[C@H](C(=O)N[C@@H](Cc1c[nH]cn1)C(=O)N[C@@H](Cc1ccccc1)C(=O)N[C@@H](CCCNC(=N)N)C(=O)N[C@H](C(=O)NCC(N)=O)[C@@H](C)CC)[C@@H](C)CC,gag-pol integrase,"3′-end processing, inhibitor",HIV-1,,2.1 ± 0.2
CC[C@H](C)[C@H](NC(=O)[C@H](C)NC(=O)[C@H](CO)NC(=O)[C@H](CC(C)C)NC(=O)[C@H](Cc1ccc(O)cc1)NC(=O)[C@@H](NC(=O)[C@H](CC(=O)O)NC(=O)[C@H](CO)NC(=O)[C@H](CCC(N)=O)NC(=O)[C@H](C)NC(=O)[C@H](CC(C)C)NC(=O)[C@H](Cc1c[nH]cn1)NC(=O)[C@H](CCC(N)=O)NC(=O)[C@H](CC(C)C)NC(=O)[C@H](C)NC(=O)[C@H](CC(=O)O)NC(=O)[C@H](CO)NC(=O)[C@H](CC(C)C)NC(=O)[C@H](CO)NC(=O)[C@H](CCCCN)NC(=O)[C@H](CC(N)=O)NC(=O)[C@@H](NC(=O)[C@H](C)NC(=O)[C@H](C)NC(=O)[C@H](CC(C)C)NC(=O)[C@H](CC(N)=O)NC(=O)[C@H](CCC(N)=O)NC(=O)[C@H](CO)NC(=O)[C@@H](NC(=O)[C@H](CC(=O)O)NC(=O)[C@H](Cc1c[nH]c2ccccc12)NC(=O)[C@@H]1CCCN1C(=O)[C@H](CC(=O)O)NC(=O)[C@@H](NC(=O)[C@H](CO)NC(=O)[C@H](CC(C)C)NC(=O)[C@@H](NC(=O)[C@H](CCC(N)=O)NC(=O)[C@H](CO)NC(=O)[C@H](CO)NC(=O)[C@H](CCC(=O)O)NC(=O)[C@H](CC(C)C)NC(=O)[C@@H](N)CCCCN)[C@@H](C)CC)[C@@H](C)CC)[C@@H](C)CC)C(C)C)[C@@H](C)O)C(=O)O,F fusion protein,"cell-cell fusion, inhibitor, luciferase reporter",Vero plus BSR-T7 cells,"6 h, 37 °C, added: SV5 F and HN",0.106 ± 0.008
CNCc1ccc2c(c1)N(C(=O)OCc1c(F)c(F)c(F)c(F)c1F)[C@H](CNC(=N)N)[C@H]2NC(=O)C(=O)Nc1ccc(Cl)c(F)c1,"env (Human immunodeficiency virus 1, UniProt Q202J8)","pseudovirus infection, luciferase reporter",TZM-bl,48 h,10.6
O=C1c2ccc(O)c(O)c2C(=O)N1Cc1ccc(F)c(Cl)c1,"Gag-Pol polyprotein, integrase (gag-pol, Human immunodeficiency virus 1, UniProt P12497, Y1290R)","enzyme activity, inhibitor",,,1.1 ± 0.2
C=CCCC[C@H](NC(=O)[C@H](C)NC(=O)[C@H](CCC(=O)O)NC(C)=O)C(=O)N[C@H](C(=O)N[C@@H](CCCNC(=N)N)C(=O)N[C@H](C(=O)N[C@@H](CCCC=C)C(=O)N[C@@H](CCC(N)=O)C(=O)N[C@@H](CCC(N)=O)C(=O)N[C@@H](CC(C)C)C(=O)N[C@@H](CC(C)C)C(=O)N[C@@H](Cc1ccccc1)C(=O)N[C@H](C(=O)N[C@@H](Cc1c[nH]cn1)C(=O)N[C@@H](Cc1ccccc1)C(=O)N[C@@H](CCCNC(=N)N)C(=O)N[C@H](C(=O)NCC(N)=O)[C@@H](C)CC)[C@@H](C)CC)[C@@H](C)CC)[C@@H](C)CC,gag-pol integrase,"strand transfer, inhibitor",HIV-1,,4.4 ± 0.4
NC(=O)[C@H](CO)NC(=O)[C@@H]1CCCN1C(=O)[C@H](Cc1ccc(O)cc1)NC(=O)CNC(=O)[C@H](Cc1ccccc1)NC(=O)[C@@H](CCCNC(=O)CBr)NC(=O)[C@@H](N)Cc1ccc(O)cc1,"Delta-type opioid receptor (Oprd1, Mus musculus, UniProt P32300)",radioligand binding,CHO cells,added: 0.15 nM [3H]DPDPE,0.342 ± 0.02

# Repeated from above:
SMILES,target,assay,system,setting,IC50 [µM]
C=CCCC[C@H](NC(=O)[C@H](C)NC(=O)[C@H](CCC(=O)O)NC(C)=O)C(=O)N[C@H](C(=O)N[C@@H](CCCNC(=N)N)C(=O)N[C@H](C(=O)N[C@@H](CCCC=C)C(=O)N[C@@H](CCC(N)=O)C(=O)N[C@@H](CCC(N)=O)C(=O)N[C@@H](CC(C)C)C(=O)N[C@@H](CC(C)C)C(=O)N[C@@H](Cc1ccccc1)C(=O)N[C@H](C(=O)N[C@@H](Cc1c[nH]cn1)C(=O)N[C@@H](Cc1ccccc1)C(=O)N[C@@H](CCCNC(=N)N)C(=O)N[C@H](C(=O)NCC(N)=O)[C@@H](C)CC)[C@@H](C)CC)[C@@H](C)CC)[C@@H](C)CC,gag-pol integrase,"strand transfer, inhibitor",HIV-1,,4.4 ± 0.4
